Published values from different studies.
Compare with care: the assays were run in different laboratories. Several values in a cell are separate wells, animals, samples, runs or records.
Target: Receptor tyrosine-protein kinase erbB-2 (ERBB2, Homo sapiens, UniProt P04626)

Structure (SMILES)	assay	system	setting	scale	quantity	result
CC(=O)N1c2ccc(-c3ccc(CNC(=O)c4cn5cc(-c6cnc(N)nc6)nc(N6CCOCC6)c5n4)cc3)cc2CC[C@@H]1C	KINOMEscan		10 µM		remaining binding	91%
Cc1ccc(-c2c(/C=C(\C#N)C(=O)NC(C)C)n(CCCO)c3ncnc(N)c23)cc1	cell-free assay, competition with immobilised ligand		1 µM		remaining binding	49%
CCCC[C@H](NC(=O)[C@H](CCC(=O)O)NC(=O)[C@H](CCCCN)NC(=O)[C@H](CO)NC(=O)[C@H](Cc1ccccc1)NC(C)=O)C(=O)N[C@@H](CCCNC(=N)N)C(=O)N[C@@H](CC(N)=O)C(=O)N[C@@H](CCCNC(=N)N)C(=O)N[C@@H](Cc1ccc(O)cc1)C(=O)N[C@@H](Cc1c[nH]c2ccccc12)C(=O)N[C@@H](CCCC(=O)NCCN(CC(=O)NCCN(CC(=O)NCCN(CC(=O)NCCN(CC(=O)N[C@@H](CCCNC(=N)N)C(N)=O)C(=O)Cn1cnc2c(=O)[nH]c(N)nc21)C(=O)Cn1ccc(N)nc1=O)C(=O)Cn1ccc(N)nc1=O)C(=O)Cn1cnc2c(=O)[nH]c(N)nc21)C(=O)N[C@@H](CS)C(=O)N[C@@H](C)C(=O)N[C@@H](CC(C)C)C(=O)N[C@@H](CC(=O)O)C(=O)N1CCC[C@H]1C(=O)N[C@@H](CC(N)=O)C(=O)N[C@@H](CC(C)C)C(=O)N[C@H](C(=O)N[C@@H](CC(N)=O)C(=O)N[C@@H](CCC(N)=O)C(=O)N[C@@H](CCC(N)=O)C(=O)N[C@@H](CCCCN)C(=O)N[C@@H](CCCNC(=N)N)C(=O)N[C@@H](C)C(=O)N[C@@H](CCCCNC(=O)CN(CCNC(=O)CN(CCNC(=O)CN(CCNC(=O)CN(CCNC(=O)[C@H](CCCNC(=N)N)NC(C)=O)C(=O)Cn1ccc(N)nc1=O)C(=O)Cn1cnc2c(=O)[nH]c(N)nc21)C(=O)Cn1cnc2c(=O)[nH]c(N)nc21)C(=O)Cn1ccc(N)nc1=O)C(=O)N[C@H](C(=O)N[C@@H](CCCNC(=N)N)C(=O)N[C@@H](CO)C(=O)N[C@H](C(=O)N[C@@H](Cc1ccc(O)cc1)C(=O)N[C@@H](CCC(=O)O)C(=O)N[C@@H](CCC(=O)O)C(=O)NCC(=O)N[C@@H](CCC(=O)O)C(N)=O)[C@@H](C)CC)[C@@H](C)CC)[C@@H](C)O	binding, affinity selection mass spectrometry		1 h, 4 °C, unit not given	baseline: control-subtracted	enrichment	3.95
COc1ccc(C(=O)/C=C/c2ccccc2-c2c[nH]c3ccc(C#N)cc23)c(O)c1	enzyme activity, inhibitor		20 µM		inhibition	-16%
CC[C@H](C)[C@H](NC(=O)[C@H](CCCCNC(=O)CN(CCNC(=O)CN(CCNC(=O)CN(CCNC(=O)CN(CCNC(=O)[C@H](CCCNC(=N)N)NC(C)=O)C(=O)Cn1ccc(N)nc1=O)C(=O)Cn1cnc2c(=O)[nH]c(N)nc21)C(=O)Cn1cnc2c(=O)[nH]c(N)nc21)C(=O)Cn1ccc(N)nc1=O)NC(=O)[C@H](C)NC(=O)[C@H](CCCNC(=N)N)NC(=O)[C@H](CCCCN)NC(=O)[C@H](CCC(N)=O)NC(=O)[C@H](CCC(N)=O)NC(=O)[C@H](CC(N)=O)NC(=O)[C@@H](NC(=O)[C@H](CC(C)C)NC(=O)[C@H](CC(N)=O)NC(=O)[C@@H]1CCCN1C(=O)[C@H](CC(=O)O)NC(=O)[C@H](CC(C)C)NC(=O)[C@H](C)NC(=O)[C@H](CS)NC(=O)[C@H](CCCC(=O)NCCN(CC(=O)NCCN(CC(=O)NCCN(CC(=O)NCCN(CC(N)=O)C(=O)Cn1cnc2c(=O)[nH]c(N)nc21)C(=O)Cn1ccc(N)nc1=O)C(=O)Cn1ccc(N)nc1=O)C(=O)Cn1cnc2c(=O)[nH]c(N)nc21)NC(=O)[C@H](Cc1c[nH]c2ccccc12)NC(=O)[C@H](Cc1ccc(O)cc1)NC(=O)[C@H](CCCNC(=N)N)NC(=O)[C@H](CC(N)=O)NC(=O)[C@H](CCCNC(=N)N)NC(=O)[C@H](CC1CCCCC1)NC(=O)[C@H](CCC(=O)O)NC(=O)[C@H](CCCCN)NC(=O)[C@H](CO)NC(=O)[C@H](Cc1ccccc1)NC(C)=O)[C@@H](C)O)C(=O)N[C@@H](CCCNC(=N)N)C(=O)N[C@@H](CO)C(=O)N[C@H](C(=O)N[C@@H](Cc1ccc(O)cc1)C(=O)N[C@@H](CCC(=O)O)C(=O)N[C@@H](CCC(=O)O)C(N)=O)[C@@H](C)CC	binding, SPR				kon	2.07e+06 M⁻¹ s⁻¹
COc1cc(Nc2nc(C)cc(-c3cnn4nc(OC)ccc34)n2)cc(C(F)(F)F)c1	inhibitor		1 µM	baseline: control	remaining activity	100%
COc1cc(OC)c(F)c(/C=C/c2cnc3ccn(S(=O)(=O)c4cn(CCF)cn4)c3n2)c1F			1000 nM		inhibition	2.5%
CCCC[C@H](NC(=O)[C@H](CCC(=O)O)NC(=O)[C@H](CCCCN)NC(=O)[C@H](CO)NC(=O)[C@H](Cc1ccccc1)NC(C)=O)C(=O)N[C@@H](CCCNC(=N)N)C(=O)N[C@@H](CC(N)=O)C(=O)N[C@@H](CCCNC(=N)N)C(=O)N[C@@H](Cc1ccncc1)C(=O)N[C@@H](Cc1c[nH]c2ccccc12)C(=O)N[C@@H](CCCC(=O)NCCN(CC(=O)NCCN(CC(=O)NCCN(CC(=O)NCCN(CC(N)=O)C(=O)Cn1cnc2c(=O)[nH]c(N)nc21)C(=O)Cn1ccc(N)nc1=O)C(=O)Cn1ccc(N)nc1=O)C(=O)Cn1cnc2c(=O)[nH]c(N)nc21)C(=O)N[C@@H](CS)C(=O)N[C@@H](C)C(=O)N[C@@H](CC(C)C)C(=O)N[C@@H](CC(=O)O)C(=O)N1CCC[C@H]1C(=O)N[C@@H](CC(N)=O)C(=O)N[C@@H](CC(C)C)C(=O)N[C@H](C(=O)N[C@@H](CC(N)=O)C(=O)N[C@@H](CCC(N)=O)C(=O)N[C@@H](CCC(N)=O)C(=O)N[C@@H](CCCCN)C(=O)N[C@@H](CCCNC(=N)N)C(=O)N[C@@H](C)C(=O)N[C@@H](CCCCNC(=O)CN(CCNC(=O)CN(CCNC(=O)CN(CCNC(=O)CN(CCNC(=O)[C@H](CCCNC(=N)N)NC(C)=O)C(=O)Cn1ccc(N)nc1=O)C(=O)Cn1cnc2c(=O)[nH]c(N)nc21)C(=O)Cn1cnc2c(=O)[nH]c(N)nc21)C(=O)Cn1ccc(N)nc1=O)C(=O)N[C@H](C(=O)N[C@@H](CCCNC(=N)N)C(=O)N[C@@H](CO)C(=O)N[C@H](C(=O)N[C@@H](Cc1ccc(O)cc1)C(=O)N[C@@H](CCC(=O)O)C(=O)N[C@@H](CCC(=O)O)C(=O)NCC(=O)N[C@@H](CCC(=O)O)C(N)=O)[C@@H](C)CC)[C@@H](C)CC)[C@@H](C)O	binding, affinity selection mass spectrometry		1 h, 4 °C, unit not given	baseline: control-subtracted	enrichment	1.53
CNC(=O)C1CCN(c2cc(C)c(F)cc2NC(=O)c2ccc(-c3cc(O)ccc3C)c(C)c2)CC1	binding, competition with immobilised ligand		1 µM		remaining binding	100%
CN1CCN(Cc2ccc(NC(=O)c3cccc(C#Cc4cnc(N)c5ncccc45)c3)cc2C(F)(F)F)CC1	cell-free assay, competition with immobilised ligand		0.5 µM		remaining binding	2.1%
CC(C)=CC1OC(C)(C)C2C=C3C(=O)C(Cl)=CC(O)C3C3C(O)C4OC4C(=O)C132 (stereo not shown)	cell-free assay, competition with immobilised ligand		10 µM		remaining binding	80%
O=C(Cc1ccc(OCc2ccccc2)cc1)NC1(C(=O)O)CCN(C(=O)c2ccc(-c3cccc(Cl)c3)cc2)CC1	enzyme activity, inhibitor		10 µM		activity vs control	102%
Cc1cnc2nc1Nc1cccc(c1)COC/C=C/COCc1cc(ccc1OCCN1CCOCC1)N2	binding		0.1 µM		remaining binding	100%
C=CC(=O)Nc1cc(-c2nn(C3CCN(CCNC(=O)[C@H](C)CCC45CC6CC(CC(C6)C4)C5)CC3)c3ncnc(N)c23)ccc1Oc1ccccc1	inhibitor, KiNativ profiling	biochemical	2 µM		inhibition	62.6%
Cc1cccc(O[C@H]2CCC[C@@H](C(C)CNCc3ccncc3)C2)c1 (relative stereo)	enzyme activity, inhibitor		1 µM		inhibition	-4%
NC(=O)C[C@H]1CCc2sc3ncnc(O[C@H]4CC[C@H](N5CCOCC5)CC4)c3c21	enzyme activity, inhibitor		10 µM		inhibition	-16%
COCC12C(=O)NC3C4(C(OC)CC1O)C1CC5(O)C(OC)C(O)C(OC(C)=O)(C1C5OC(=O)c1ccccc1)C3(O)C(OC)C24 (stereo not shown)	kinase activity, inhibitor, ProQinase kinase profiling		25 µM	baseline: control	remaining activity	107% and 88%
C=CC(=O)Nc1cccc(-c2cnc3[nH]cc(C(=O)NC(C)(C)C)c3n2)c1	kinase activity		0.1 µM		inhibition	-5% and -8%
Nc1ncc2c(n1)-c1c([nH]c3ccc(C4=CCOCC4)cc13)CCC2	binding, competition with immobilised ligand		1 µM		remaining binding	62%
C[C@H]1CN(C(=O)c2cn(-c3ccnc(N)n3)c3cc(C#CC4(O)CCCCC4)ccc23)CCN1	enzyme activity, inhibitor, FRET		1 µM		inhibition	-4%
Nc1ncc(-c2cc(-c3cnn(CC(F)(F)F)c3)ncc2F)nc1C(=O)NC1CNCC(F)C1 (stereo not shown)	enzyme activity		1 µM	baseline: DMSO control	remaining activity	90.3%
CCn1cc(C(=O)O)c(=O)c2c(N)c(F)c(NC3CCCCC3)cc21	kinase activity		0.1 µM, together with: ATP at Km		inhibition	-0.1%
